Published values collected from several papers.
Lines come from different studies, so protocols differ.
Target: Casein kinase I isoform gamma-2 (CSNK1G2, Homo sapiens, UniProt P78368)
Chain of UniProt P78368 (whole entry, looked up): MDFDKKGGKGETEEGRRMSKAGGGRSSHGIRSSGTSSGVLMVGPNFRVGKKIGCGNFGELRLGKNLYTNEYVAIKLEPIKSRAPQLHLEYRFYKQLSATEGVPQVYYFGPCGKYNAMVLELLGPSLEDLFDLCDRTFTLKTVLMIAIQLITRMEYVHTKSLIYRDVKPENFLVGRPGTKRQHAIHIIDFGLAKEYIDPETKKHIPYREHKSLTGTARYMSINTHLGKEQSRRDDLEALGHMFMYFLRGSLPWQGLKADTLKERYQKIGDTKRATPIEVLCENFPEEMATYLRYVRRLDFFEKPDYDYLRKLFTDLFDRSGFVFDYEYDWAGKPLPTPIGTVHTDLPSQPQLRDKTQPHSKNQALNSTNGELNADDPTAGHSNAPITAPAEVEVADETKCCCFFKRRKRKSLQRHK

With `C=CC(=O)N1CCC(C(=O)NCC(=O)N2CCN(c3nc(-c4cnc(N)nc4C(F)F)nc(N4CCOCC4)n3)CC2)CC1` the remaining binding was 100% (KINOMEscan; 1 µM).
Under “percent of control”, `C1=C/COCc2cc(ccc2OCCN2CCCC2)Nc2nccc(n2)-c2cccc(c2)COC/1` is recorded as 92% (concentration not given).
For `O=C(NC1CCC1)c1ccc2nc(-c3cccc(NS(=O)(=O)NCCN4CCCCC4)c3)cn2c1`, the remaining activity was 76% (enzyme activity; 10 µM).
`CCN(CC)c1ccc(C2=NNC(=O)CC2C)cc1[N+](=O)[O-]` (centres unmarked) has a remaining activity of 107% (enzyme activity, inhibitor; 10 µM; baseline: vehicle).
With `CCCOc1ccc(OC)c(F)c1C(=O)c1ccc(C(=O)N[C@@H]2CNC[C@H]2NC(=O)c2ccc3[nH]ncc3c2)cc1` the remaining activity was 60% (enzyme activity; 10 µM).
`Cc1cc(Nc2cc(N3CCN(C)CC3)nc(Sc3ccc(NC(=O)C4CC4)cc3)n2)[nH]n1` has a remaining activity of 108% (kinase activity, KinaseProfiler; 0.03 µM, species human; baseline: control).
`CC[C@@H]1[C@H](F)C(=O)N[C@@H]1COc1nccc2cc(C(N)=O)c(OC)cc12` has an inhibition of 4.3% (ATP-site probe binding, ActivX profiling; THP-1 cell lysate; 0.01 mM, Lys2 site).
The remaining binding of `C[C@@H](c1ccc(-n2cnc3c(N)ncnc32)cc1)N1CCc2nn(C)c(Cc3ccccc3)c2C1=O` is reported as 96% (KINOMEscan; 0.1 µM; baseline: DMSO control).
`C=CC(=O)N1CCC(COCC(=O)N2CCN(c3nc(-c4cnc(N)nc4C(F)F)nc(N4CCOC[C@@H]4C)n3)CC2)CC1` gave a remaining binding of 99% (KINOMEscan; 1 µM; baseline: DMSO control).
With `COc1cc(F)ccc1-c1ncnc(Nc2cccc(C[S@](C)(=N)=O)c2)n1` the remaining activity was 87% (kinase activity; 10 µM, with: 10 µM ATP).
With `COc1cc(N2CCN(C)CC2)ccc1Nc1nc(N)n(C(=S)NCc2c(Cl)cccc2Cl)n1` the remaining activity was 33% (enzyme activity; 10 µM; baseline: control).

For quick reference, copied from above:
With `COc1cc(F)ccc1-c1ncnc(Nc2cccc(C[S@](C)(=N)=O)c2)n1` the remaining activity was 87% (kinase activity; 10 µM, with: 10 µM ATP).
